Experimental data pooled from the literature.
Each line is one published result; not all experiments were run side by side.
Target: Mitogen-activated protein kinase 15 (MAPK15, Homo sapiens, UniProt Q8TD08)

CNC1C[S+]2CC[S+]3CC[S+](C1)[Ru-4]321([N]=C=S)[n]2c3ccc(OC)cc3c3c4c(c5cc(F)c[n+]1c5c32)C(=O)NC4=O (stereo not drawn)  remaining binding (KinomeScan; 0.1 µM; reference: untreated): 100%
Nc1ncc(-c2cc(-c3cnn(CC(F)(F)F)c3)ncc2F)nc1C(=O)NC1CNCC(F)C1 (stereo not drawn)  remaining activity (enzyme activity; 1 µM; reference: DMSO control): 80.6%
COc1ccc(O)cc1-c1c[nH]c2ncc(-c3cncc(C(=O)N(C)C)c3)cc12  inhibition (binding, competition with immobilised ligand; 0.2 µM): -7.46%
C=CC(=O)N1CCCC(n2c(=O)c3ncccc3n(Cc3ccc(Oc4ccccc4)cc3)c2=O)C1 (stereo not drawn)  remaining binding (cell-free assay, competition with immobilised ligand; 1 µM): 94%
Cc1ccc(C)c(-c2ccc3nc(NC(=O)C4CCCCC4)nn3c2)c1  remaining activity (enzyme activity, Dundee kinase panel; 10 µM): 72%
CNC(=O)C1CCN(c2cc(C)c(F)cc2NC(=O)c2ccc(-c3cc(O)ccc3C)c(C)c2)CC1  remaining binding (binding, competition with immobilised ligand; 1 µM): 99%
COc1cc(Nc2nc(C)cc(-c3cnn4nc(OC)ccc34)n2)cc(C(F)(F)F)c1  remaining binding (binding, competition with immobilised ligand; 1 µM): 96%
O=C(Nc1cc(-c2ccnc3[nH]ccc23)c(Cl)cn1)[C@H]1CCC[C@@H](NC(=O)C(F)(F)F)C1  remaining binding (binding, competition with immobilised ligand; 0.1 µM): 28%
C=CC(=O)N1CCc2ccc(-n3c(=O)ccc4cnc5ccc(-c6cnn(C)c6)cc5c43)cc21  remaining binding (KINOMEscan; 1 µM; reference: DMSO control): 100%
Cc1cnc2nc1Nc1cccc(c1)COC/C=C/COCc1cc(ccc1OCCN1CCOCC1)N2  remaining binding (binding, competition with immobilised ligand; 0.1 µM): 100%
CN1CCN(Cc2ccc(-c3ccc(CO[C@H]4CCC[C@@H]4NC(=O)c4cc(-c5cnn(C)c5)cnc4N)cc3)cc2)CC1  inhibition (enzyme activity, inhibitor; 0.1 µM): 0%
COc1c(Cl)cccc1Nc1c(-c2ccncc2C#C[C@@]2(C)CCCN2C(=O)/C=C/CN(C)C)[nH]c2c1C(=O)NCC2  remaining binding (binding, competition with immobilised ligand; 3 µM): 100%
Cc1ccc(-c2c(/C=C(\C#N)C(=O)NC(C)C)n(CCCO)c3ncnc(N)c23)cc1  remaining binding (cell-free assay, competition with immobilised ligand; 1 µM): 99%
CCN1CCN(Cc2ccc(C(=O)Nc3ccc(C)c(NCc4cnc5[nH]ccc5c4OC)c3)cc2C(F)(F)F)CC1  remaining binding (binding, competition with immobilised ligand; 1 µM): 88%
COc1cc(Nc2nccc(-c3cnn4nc(OC)ccc34)n2)cc(C(F)(F)F)c1  remaining binding (binding, competition with immobilised ligand; 1 µM): 21%
CC(C)=CC1OC(C)(C)C2C=C3C(=O)C(Cl)=CC(O)C3C3C(O)C4OC4C(=O)C132 (stereo not drawn)  remaining binding (cell-free assay, competition with immobilised ligand; 10 µM): 92%
Cc1cccc(-c2ccc3nc(NC(=O)C4CCCCC4)nn3c2)c1  remaining activity (enzyme activity, Dundee kinase panel; 10 µM): 77%
CCn1cc(C(=O)O)c(=O)c2c(N)c(F)c(NC3CCCCC3)cc21  inhibition (kinase activity; 0.1 µM, together with: ATP at Km): 14.6%
Nc1ncc2c(n1)-c1c([nH]c3ccc(C4=CCOCC4)cc13)CCC2  remaining binding (binding, competition with immobilised ligand; 1 µM): 100%
C=CC(=O)N1Cc2nc(-c3cc(-c4cc(Cl)cnc4Cl)c(F)cc3F)n(-c3ccncn3)c2C1  inhibition (cell-free assay, inhibitor; 1 µM): 2.9%
Nc1nc(Nc2ccccc2)sc1C(=O)c1ccccc1  remaining activity (enzyme activity, inhibitor; 10 µM): 9%

Excerpt of the above:
Cc1ccc(-c2c(/C=C(\C#N)C(=O)NC(C)C)n(CCCO)c3ncnc(N)c23)cc1  remaining binding (cell-free assay, competition with immobilised ligand; 1 µM): 99%
CCN1CCN(Cc2ccc(C(=O)Nc3ccc(C)c(NCc4cnc5[nH]ccc5c4OC)c3)cc2C(F)(F)F)CC1  remaining binding (binding, competition with immobilised ligand; 1 µM): 88%
